Published values of several laboratories.
Protocols differ between the studies behind these lines. ± gives the spread as reported. In brackets after ≈: the same amount, converted by molar mass.

With `Oc1ccc2ccccc2c1/N=N/c1ccc(/N=N/c2ccccc2)cc1` the measured concentration was 16.3 µg/L (rat whole blood QC samples; 16.0 µg/L, 8 h, room temperature, short-term stability).
The Cmax of `Cc1ccc(OCC(=O)O)cc1` is reported as 9.62 ± 4.65 µg/mL (Sprague-Dawley rat, male, plasma; oral gavage, 100 mg/kg of parent drug).
Under “single disulfide form”, `CC[C@H](C)[C@H](NC(=O)[C@H](CCCCN)NC(=O)[C@H](CS)NC(=O)[C@H](CC(N)=O)NC(=O)[C@H](C)NC(=O)[C@H](CCCNC(=N)N)NC(=O)[C@H](CCCNC(=N)N)NC(=O)[C@H](CC(N)=O)NC(=O)[C@H](CCCNC(=N)N)NC(=O)[C@@H](NC(=O)[C@H](CCCNC(=N)N)NC(=O)[C@H](CS)NC(=O)[C@H](CO)NC(=O)[C@@H](NC(=O)[C@H](CCC(N)=O)NC(=O)[C@H](CS)NC(=O)[C@H](CCCCN)NC(=O)[C@@H](N)CCCNC(=N)N)[C@@H](C)CC)[C@@H](C)CC)C(=O)N[C@@H](CO)C(=O)N[C@@H](CS)C(=O)N[C@@H](CC(N)=O)C(=O)O` is recorded as 8% (LC-MS; PBS; 0.1 mg/mL).
The performance time of `C[Si](C)(C)C[C@H](CN)CC(=O)O` is reported as 180 s (neuromuscular coordination; Wistar rat male; oral, 300 mg/kg, 1 h).
Under “deviation from nominal concentration”, `COC(=O)C(c1ccccc1Cl)N1CCC(SCC(=O)c2cccc(OC)c2)C(=CC(=O)O)C1` (mixture of isomers) is recorded as -13% (feline EDTA plasma; 100 ng/mL, 1 weeks, room temperature).
The LDL level of `C=C(c1ncc(C(=O)O)cn1)c1cc2c(cc1C)C(C)(C)CCC2(C)C` is reported as 11 ± 7 mg/dL (Sprague-Dawley rat, male, plasma; oral, 100 mg/kg, 9 h, sesame oil vehicle).
For `CC(C)c1cnc(-c2cc(Cl)ccc2F)cc1Nc1ccncc1C(=O)NC(CO)CO`, “patients with decreased appetite” read 7.1% (patients, phase I monotherapy; oral, dose not given, grade 1).
`C#CCOc1ccc(/C=C2\SC(=O)N(CC(=O)NCc3ccccc3)C2=O)cc1` — result for “Kirkwood-Buff integral G2,3”: -437 cm³/mol (inverse Kirkwood-Buff integrals; binary solvent mixture; 298.15 K, mole fraction x1 0.20).
For `Cc1noc(C)c1Cn1cc(N2C(=O)CN(Cc3cccc(O[C@@H]4O[C@H](C(=O)O)[C@@H](O)[C@H](O)[C@H]4O)c3)C2=O)cn1`, the AUC(0-last) was 22.9 µg·h/mL (rat Sprague-Dawley male, plasma; oral, 30 mg/kg of parent drug).
`COc1ccc(-c2ccn(CC[C@](C)(C(=O)NO)S(C)(=O)=O)c(=O)c2)c(F)c1` has a free AUC of 23.7 ± 0.3 µg·h/mL (CF-1 mouse, female; subcutaneous, 300 mg/kg).
`CCC(C)N(C)C(=O)c1nc(-c2cccc(C(F)(F)[18F])c2)c2ccccc2n1` (centres unmarked) has a beta half-life of ~1.28 h (healthy mice, blood; intravenous, 3.7 MBq).
`Cn1cc(C(N)=O)c(NC2C3CC4CC2CC(O)(C4)C3)c2ccnc1-2` (centres unmarked) gave a Tmax (median) of 3.5 h (Japanese adults, normal hepatic function, plasma; oral, 150 mg single dose).
The absorption maximum of `COc1cc(OC)cc(C2=C3C(C)=C(I)C(/C=C/c4c[nH]c5ccccc45)=[N+]3[B-](F)(F)n3c(/C=C/c4c[nH]c5ccccc45)c(I)c(C)c32)c1` is reported as 715 nm (THF).
`CCCCCCC(=O)C(=O)C(O)CO` (centres unmarked) — result for “surface tension decrease”: ~17 mN/m (aqueous buffer; 1 to 5 mM, pH 7.4).
The AUC(0-t) of `CC(=O)N[C@H](CC(=O)O)C(=O)N[C@H](Cc1c[nH]c2ccccc12)C(=O)N[C@H](Cc1ccccc1)C(=O)N[C@H](CCCCN)C(=O)N[C@H](C)C(=O)N[C@H](Cc1ccccc1)C(=O)N[C@H](Cc1ccc(O)cc1)C(=O)N[C@H](CC(=O)O)C(=O)N[C@H](CCCCN)C(=O)N[C@@H](C(=O)N[C@H](C)C(=O)N[C@H](CCC(=O)O)C(=O)N[C@H](CCCCN)C(=O)N[C@H](Cc1ccccc1)C(=O)N[C@H](CCCCN)C(=O)N[C@H](CCC(=O)O)C(=O)N[C@H](C)C(=O)N[C@H](Cc1ccccc1)C(N)=O)C(C)C` is reported as 0.00456 µg·h/mL (statin-treated high-risk CHD men, plasma; oral, 300 mg daily, day 1, 0 to 2 h, mean, undetectable set to 0).
The tissue uptake of `CCCC[C@H](NC(=O)CNC(=O)CNC(=O)CN1CCN(CC(=O)O)CCN(CC(=O)O)CC1)C(=O)N[C@H]1CC(=O)NCCCC[C@@H](C(N)=O)NC(=O)[C@H](Cc2c[nH]c3ccccc23)NC(=O)[C@H](CCCNC(=N)N)NC(=O)[C@@H](Cc2ccccc2)NC(=O)[C@H](Cc2c[nH]cn2)NC1=O` [copper-64 labelled] is reported as 0.74 ± 0.18 %ID/g (female C57 mouse, B16/F1 melanoma, kidneys; intravenous, 0.037 MBq, 24 h).
With `CCCCCCCC(=O)OC[C@H](NC(=O)[C@H](CO)NC(=O)CN)C(=O)N[C@@H](Cc1ccccc1)C(=O)N[C@@H](CC(C)C)C(=O)N[C@@H](CO)C(=O)N1CCC[C@H]1C(=O)N[C@@H](CCC(=O)O)C(=O)N[C@@H](Cc1cnc[nH]1)C(=O)N[C@@H](CCC(N)=O)C(=O)N[C@@H](CCCNC(=N)N)C(=O)N[C@H](C(=O)N[C@@H](CCC(N)=O)C(=O)N[C@@H](CCC(N)=O)C(=O)N[C@@H](CCCNC(=N)N)C(=O)N[C@@H](CCCCN)C(=O)N[C@@H](CCC(=O)O)C(=O)N[C@@H](CO)C(=O)N[C@@H](CCCCN)C(=O)N[C@@H](CCCCN)C(=O)N1CCC[C@H]1C(=O)N1CCC[C@H]1C(=O)N[C@@H](C)C(=O)N[C@@H](CCCCN)C(=O)N[C@@H](CC(C)C)C(=O)N[C@@H](CCC(N)=O)C(=O)N1CCC[C@H]1C(=O)N[C@@H](CCCNC(=N)N)C(=O)O)C(C)C` the thirst score was 5 (patients with chronic HFrEF; iv infusion, 0.1 µg/kg/min, end of 120 min infusion, scale 1-10, median; direction not given).
For `N=C(N)NCCC[C@@H]1NC(=O)[C@H](Cc2c[nH]c3ccccc23)NC(=O)[C@@H](CC2CCCCC2)NC(=O)[C@@H]2CCCN2C(=O)[C@@H](NC(=O)CCc2ccccc2)CCCNC1=O`, the Tmax was 0.291 h (C57BL/6J mice, spinal cord; intraperitoneal, 1 mg/kg).
The fluorescence lifetime of `COc1ccc(/C=C/c2ccc(-c3ccc(C)cn3)nc2)cc1` is reported as 0.75 ns (TCSPC; benzene).
`NCCCC[C@H](NC(=O)[C@@H]1CCCN1C(=O)[C@@H]1CSSC[C@H](NC(=O)CNC(=O)CNC(=O)CN)C(=O)N[C@@H](Cc2ccc(O)cc2)C(=O)N[C@@H](Cc2ccccc2)C(=O)N[C@@H](CCC(N)=O)C(=O)N[C@@H](CC(N)=O)C(=O)N1)C(=O)NCC(N)=O` gave a therapeutic index of ~10 (male Sprague Dawley rats; iv; reference: NOAEL over NOEL).
`O=C([O-])CN1CCN(CC(=O)[O-])CCN(C(CCC(=O)NC(Cc2c[nH]c3ccc(O)cc23)C(=O)NCCc2c[nH]c3ccc(O)cc23)C(=O)O)CCN(CC(=O)[O-])CC1.[Gd+3]` (centres unmarked) has a slow-phase half-life of 0.528 h (ICP-MS; mouse, blood; iv, 0.1 mmol/kg).
The kinetic solubility of `Cc1ccc(NCC(=O)N2CCOCC2)cc1S(=O)(=O)N1CCOCC1` is reported as 110 µM (≈ 42.2 µg/mL) (water).
With `CC[C@H](C)[C@H](NC(=O)[C@H](N)Cc1ccc(O)cc1)C(=O)N[C@H]1CSSC[C@@H](C(=O)N(C)[C@H](C(N)=O)[C@@H](C)CC)NC(=O)[C@H](CCCNC(=N)N)NC(=O)[C@H](Cc2c[nH]cn2)NC(=O)[C@H](C)NC(=O)CN(C)C(=O)[C@H](Cc2c[nH]c3ccccc23)NC(=O)[C@H](CC(=O)O)NC(=O)[C@H](CCC(N)=O)NC(=O)[C@H](Cc2cn(C)c3ccccc23)NC(=O)[C@H](C(C)C)NC1=O` the recovery was 98.4 ± 0.5% (UPLC-ESI-MS; cynomolgus monkey plasma; 0.36 µg/mL, 24 h, 25 °C, bench-top after SPE).
`Cc1cn(CC(=O)N[C@@H](Cc2ccccc2)C(=O)N[C@@H](Cc2ccccc2)C(=O)O)c(=O)[nH]c1=O` has a nanofiber width of 9 nm (TEM; hydrogel in water; 2.0 wt%, pH 5.0 or 7.4, together with: alkaline phosphatase at pH 7.4).
`Cc1cc(O)c2c(c1)C(=O)c1cc(O)cc(O)c1C2=O.Cc1cc(O)c2c(c1)C(=O)c1cc(O)cc(O)c1C2=O.Cc1nc(C)c(C)nc1C` — result for equilibrium solubility: “increased” (shake-flask; water and phosphate buffer; pH 6.8, 37 °C; reference: pure emodin).
`CC(C)C[C@@H](NC(=O)[C@H](NC(=O)[C@H]1CCCN1)[C@H](C)O)C(=O)N[C@H](Cc1c[nH]cn1)C(=O)N[C@@H](C(=O)N[C@H](Cc1c[nH]cn1)C(=O)N[C@H](CC(N)=O)C(=O)N[C@H](CCCNC(=N)N)C(=O)N[C@H](CCCNC(=N)N)C(=O)N[C@H](CCCNC(=N)N)C(=O)N[C@H](CCCNC(=N)N)C(=O)N[C@H](CCCNC(=N)N)C(N)=O)[C@H](C)O` gave an apparent half-life of 80 ± 5.6 h (Beagle dog, CSF; intravenous, 3 mg/kg, single dose, last 2 points).
`COCCOCCOCCOCCOCCOCCOCCOCCOCCOCCOCCOCCOCCOCCOCCOCCOCCOCCOCCOCCOCCOCCNC(=O)CCC1(Cc2ccccc2)c2ccccc2-c2ccc(-c3sc(-c4c5c(c(-c6sc(-c7ccc8c(c7)C(CCC(=O)NCCOCCOCCOCCOCCOCCOCCOCCOCCOCCOCCOCCOCCOCCOCCOCCOCCOCCOCCOCCOCCOCCOC)(Cc7ccccc7)c7ccccc7-8)c7c6OCCO7)c6nsnc46)N=S=N5)c4c3OCCO4)cc21` (centres unmarked) gave a faecal excretion of ~80% (KM mice, female, faeces; intravenous, dose not given, 24 h; reference: dose).
With `CSCOC1C(=O)C2(C)C(OCSC)CC3OCC3(OC(C)=O)C2C(OC(=O)c2ccccc2)C2(O)CC(OC(=O)C(O)C(C=C(C)C)NC(=O)OC(C)(C)C)C(C)=C1C2(C)C` (centres unmarked) the clearance was 6.3 L/h/kg (female Sprague-Dawley rat, plasma; intravenous, 1 mg/kg).
For `Cn1c(=O)oc2ccc(-c3ccc(CC(C#N)NC(=O)C4CNCCCO4)c(F)c3)cc21` (centres unmarked), “subjects with TEAE” read 0% (item: alanine aminotransferase increased; human; 80 mg single dose, fasted).
`CC(C)C(=O)N1CCC=C(c2cc3c(Nc4cc5ncsc5cc4F)ncnc3s2)C1` has a half-life of > 2 h (metabolic stability; human, liver microsomes).
`COc1cc(NC(C)=O)c2c(c1O)-c1c(OC)c(OC)cc3c1C(C2)N(C)CC3` (centres unmarked) has a remaining compound of 93 ± 2% (rat kidney homogenate; 50 µg/mL, time not given, three freeze-thaw cycles).
`[11CH3]c1ccc2nc(C3CCC3)n(-c3ccc4[nH]ncc4c3)c2n1`: “absorbed radiation dose” 3.4 µSv/MBq (standard human adult, pancreas).
